Measurements pooled from the literature.
Every numbered part comes from another study and shows a few of its results, in no order. “And” joins repeats or separate records; there may be more than shown.
UniProt Q92772, sequence (whole entry, looked up): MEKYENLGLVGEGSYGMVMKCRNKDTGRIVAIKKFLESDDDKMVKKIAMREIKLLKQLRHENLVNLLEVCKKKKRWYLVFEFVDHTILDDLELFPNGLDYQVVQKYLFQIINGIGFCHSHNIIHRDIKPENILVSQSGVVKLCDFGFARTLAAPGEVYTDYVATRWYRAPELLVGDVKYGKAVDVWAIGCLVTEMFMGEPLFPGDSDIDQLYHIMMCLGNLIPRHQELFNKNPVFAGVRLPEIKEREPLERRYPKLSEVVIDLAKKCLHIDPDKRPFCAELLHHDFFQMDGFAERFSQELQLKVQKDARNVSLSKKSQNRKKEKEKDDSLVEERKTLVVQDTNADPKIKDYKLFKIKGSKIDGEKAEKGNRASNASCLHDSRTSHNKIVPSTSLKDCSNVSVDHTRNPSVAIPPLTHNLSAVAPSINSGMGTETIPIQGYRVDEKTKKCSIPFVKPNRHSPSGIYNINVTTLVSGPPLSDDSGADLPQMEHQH
UniProt P31751, sequence (whole entry, looked up): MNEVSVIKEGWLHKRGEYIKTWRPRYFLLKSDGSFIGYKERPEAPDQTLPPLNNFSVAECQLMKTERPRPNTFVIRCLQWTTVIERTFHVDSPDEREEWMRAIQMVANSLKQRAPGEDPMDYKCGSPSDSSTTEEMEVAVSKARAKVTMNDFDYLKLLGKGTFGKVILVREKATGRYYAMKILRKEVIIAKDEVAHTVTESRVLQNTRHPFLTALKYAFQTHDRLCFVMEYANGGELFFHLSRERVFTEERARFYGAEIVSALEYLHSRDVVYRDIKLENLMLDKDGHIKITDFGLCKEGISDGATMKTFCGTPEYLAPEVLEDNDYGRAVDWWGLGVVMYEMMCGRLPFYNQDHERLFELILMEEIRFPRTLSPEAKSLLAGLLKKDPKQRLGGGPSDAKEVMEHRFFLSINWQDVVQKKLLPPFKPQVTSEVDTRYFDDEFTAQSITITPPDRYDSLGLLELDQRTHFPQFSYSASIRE
UniProt Q9UK32, sequence (whole entry, looked up): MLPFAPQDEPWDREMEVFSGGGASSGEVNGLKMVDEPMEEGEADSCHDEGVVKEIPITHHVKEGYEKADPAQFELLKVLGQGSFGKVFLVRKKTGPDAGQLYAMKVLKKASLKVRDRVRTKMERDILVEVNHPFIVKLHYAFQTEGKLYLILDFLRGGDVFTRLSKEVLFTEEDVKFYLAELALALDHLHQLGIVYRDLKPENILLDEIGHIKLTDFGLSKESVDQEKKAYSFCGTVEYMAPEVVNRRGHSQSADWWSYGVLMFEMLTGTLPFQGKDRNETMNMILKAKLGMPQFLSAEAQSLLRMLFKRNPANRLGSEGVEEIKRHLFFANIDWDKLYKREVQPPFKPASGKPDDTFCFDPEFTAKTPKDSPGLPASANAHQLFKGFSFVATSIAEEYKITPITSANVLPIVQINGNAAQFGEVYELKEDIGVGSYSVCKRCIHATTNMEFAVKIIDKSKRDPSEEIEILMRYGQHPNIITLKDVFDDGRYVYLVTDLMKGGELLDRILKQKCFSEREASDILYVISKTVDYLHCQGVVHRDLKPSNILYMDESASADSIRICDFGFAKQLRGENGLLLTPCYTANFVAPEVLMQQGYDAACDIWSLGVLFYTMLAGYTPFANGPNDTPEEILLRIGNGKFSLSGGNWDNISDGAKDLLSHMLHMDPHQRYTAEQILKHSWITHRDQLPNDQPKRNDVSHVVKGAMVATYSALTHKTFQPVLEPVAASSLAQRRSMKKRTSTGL
UniProt Q16288, sequence (whole entry, looked up): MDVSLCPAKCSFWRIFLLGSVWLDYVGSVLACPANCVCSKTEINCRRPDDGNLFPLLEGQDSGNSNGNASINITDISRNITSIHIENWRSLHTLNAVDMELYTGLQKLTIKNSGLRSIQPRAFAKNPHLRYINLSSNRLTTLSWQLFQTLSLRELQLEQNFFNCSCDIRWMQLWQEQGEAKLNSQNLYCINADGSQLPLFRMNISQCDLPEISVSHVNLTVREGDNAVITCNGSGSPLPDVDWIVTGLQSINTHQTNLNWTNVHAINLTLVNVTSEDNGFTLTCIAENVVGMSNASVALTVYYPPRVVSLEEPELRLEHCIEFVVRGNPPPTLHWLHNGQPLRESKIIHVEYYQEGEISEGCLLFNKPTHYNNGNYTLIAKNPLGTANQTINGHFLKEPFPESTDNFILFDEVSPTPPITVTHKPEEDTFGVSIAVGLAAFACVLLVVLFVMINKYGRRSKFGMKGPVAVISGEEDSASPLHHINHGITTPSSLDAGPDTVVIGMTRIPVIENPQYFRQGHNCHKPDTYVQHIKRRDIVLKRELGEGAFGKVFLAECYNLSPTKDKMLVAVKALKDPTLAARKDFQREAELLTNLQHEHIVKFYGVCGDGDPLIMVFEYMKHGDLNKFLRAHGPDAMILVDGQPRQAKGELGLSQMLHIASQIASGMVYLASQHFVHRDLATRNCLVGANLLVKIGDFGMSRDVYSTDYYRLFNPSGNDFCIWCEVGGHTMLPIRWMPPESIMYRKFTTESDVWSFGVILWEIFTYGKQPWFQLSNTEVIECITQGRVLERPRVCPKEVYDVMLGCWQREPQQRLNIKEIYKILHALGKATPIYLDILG
UniProt P51956, sequence (whole entry, looked up): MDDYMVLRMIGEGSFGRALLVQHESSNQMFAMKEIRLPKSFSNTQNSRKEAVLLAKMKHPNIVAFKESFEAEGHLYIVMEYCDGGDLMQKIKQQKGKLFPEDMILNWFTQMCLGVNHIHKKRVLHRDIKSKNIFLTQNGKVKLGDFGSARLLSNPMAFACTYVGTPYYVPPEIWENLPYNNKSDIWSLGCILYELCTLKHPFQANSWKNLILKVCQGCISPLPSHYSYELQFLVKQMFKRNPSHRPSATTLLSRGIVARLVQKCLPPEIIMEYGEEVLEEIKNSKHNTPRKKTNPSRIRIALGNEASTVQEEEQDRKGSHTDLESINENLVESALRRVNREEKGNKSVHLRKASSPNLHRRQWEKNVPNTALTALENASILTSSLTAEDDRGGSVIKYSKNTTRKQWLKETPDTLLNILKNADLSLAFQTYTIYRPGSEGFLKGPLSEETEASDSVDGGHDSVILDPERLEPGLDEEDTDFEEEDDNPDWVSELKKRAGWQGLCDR
UniProt P06213, sequence (whole entry, looked up): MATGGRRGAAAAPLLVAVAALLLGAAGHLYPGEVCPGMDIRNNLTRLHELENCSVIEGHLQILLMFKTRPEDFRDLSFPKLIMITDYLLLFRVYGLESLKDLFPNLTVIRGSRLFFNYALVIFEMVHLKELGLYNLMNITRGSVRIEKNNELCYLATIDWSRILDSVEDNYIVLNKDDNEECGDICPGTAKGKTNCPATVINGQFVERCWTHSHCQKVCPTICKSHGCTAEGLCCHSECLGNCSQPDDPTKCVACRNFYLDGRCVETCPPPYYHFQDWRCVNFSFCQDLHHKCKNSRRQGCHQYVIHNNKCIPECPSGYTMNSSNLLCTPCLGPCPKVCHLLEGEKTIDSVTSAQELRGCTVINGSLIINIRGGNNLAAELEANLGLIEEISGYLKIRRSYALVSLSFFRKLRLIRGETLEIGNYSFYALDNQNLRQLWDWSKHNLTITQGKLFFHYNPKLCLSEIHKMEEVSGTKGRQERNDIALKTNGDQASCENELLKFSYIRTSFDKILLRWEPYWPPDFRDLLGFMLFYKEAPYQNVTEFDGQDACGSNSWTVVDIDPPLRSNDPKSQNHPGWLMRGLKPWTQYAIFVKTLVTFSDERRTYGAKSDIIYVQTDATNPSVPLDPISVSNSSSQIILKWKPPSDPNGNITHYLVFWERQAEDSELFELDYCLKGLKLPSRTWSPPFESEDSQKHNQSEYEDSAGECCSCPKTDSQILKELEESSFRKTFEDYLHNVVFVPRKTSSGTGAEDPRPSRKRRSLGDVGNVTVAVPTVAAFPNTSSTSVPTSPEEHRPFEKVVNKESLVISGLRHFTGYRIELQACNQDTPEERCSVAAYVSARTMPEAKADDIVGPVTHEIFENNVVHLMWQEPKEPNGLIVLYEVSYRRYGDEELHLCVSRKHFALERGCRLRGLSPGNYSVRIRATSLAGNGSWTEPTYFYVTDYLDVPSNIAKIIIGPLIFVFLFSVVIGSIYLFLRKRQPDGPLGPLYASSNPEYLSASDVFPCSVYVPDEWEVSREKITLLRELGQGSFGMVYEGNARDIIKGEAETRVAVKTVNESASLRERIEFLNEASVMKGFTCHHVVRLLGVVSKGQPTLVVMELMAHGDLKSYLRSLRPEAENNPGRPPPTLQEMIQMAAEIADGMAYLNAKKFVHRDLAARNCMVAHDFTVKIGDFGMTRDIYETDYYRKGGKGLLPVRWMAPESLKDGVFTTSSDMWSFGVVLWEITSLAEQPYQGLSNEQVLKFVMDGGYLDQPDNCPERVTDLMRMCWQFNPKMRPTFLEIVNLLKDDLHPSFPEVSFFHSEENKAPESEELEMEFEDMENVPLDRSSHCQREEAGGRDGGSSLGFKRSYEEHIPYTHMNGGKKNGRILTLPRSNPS

Set 1 — effect on: cell-free assay; technique: competition with immobilised ligand; concentration: 1 µM
Structure (SMILES): CC(=O)Nc1c(C(C)=O)c(=O)n(C)c2nc(-c3ccc(Cl)cc3Cl)c(-c3ccc(Cl)cc3)cc12
It gave 100% for remaining binding (ALK (Homo sapiens, UniProt Q9UM73, L1196M)).
STK17A (Homo sapiens, UniProt Q9UEE5) — remaining binding: 100%.
It gave 78% for remaining binding (GRK1 (Homo sapiens, UniProt Q15835)).
For Ribosomal protein S6 kinase alpha-6, N-terminal kinase domain (RPS6KA6, Homo sapiens, UniProt Q9UK32): remaining binding read 88%.
It gave 63% for remaining binding (PIK3C2G (Homo sapiens, UniProt O75747)).
The remaining binding was 100% (Insulin receptor (INSR, Homo sapiens, UniProt P06213)).
For CDKL2 (Homo sapiens, UniProt Q92772): remaining binding read 100%.
For NTRK3 (Homo sapiens, UniProt Q16288): remaining binding read 100%.
For Tyrosine-protein kinase ABL1, phosphorylated (ABL1, Homo sapiens, UniProt P00519, H396P): remaining binding read 100%.
It gave 89% for remaining binding (HIPK4 (Homo sapiens, UniProt Q8NE63)).
RIOK1 (Homo sapiens, UniProt Q9BRS2) — remaining binding: 100%.

Set 2 — effect on: RNA clamping; technique: fluorescence polarization; concentration: concentration not given; notes: mean of two replicates; with: FAM-labelled poly r(AG)8 RNA
Target: Eukaryotic initiation factor 4A-I (EIF4A1, Homo sapiens, UniProt P60842)
UniProt P60842, sequence (whole entry, looked up): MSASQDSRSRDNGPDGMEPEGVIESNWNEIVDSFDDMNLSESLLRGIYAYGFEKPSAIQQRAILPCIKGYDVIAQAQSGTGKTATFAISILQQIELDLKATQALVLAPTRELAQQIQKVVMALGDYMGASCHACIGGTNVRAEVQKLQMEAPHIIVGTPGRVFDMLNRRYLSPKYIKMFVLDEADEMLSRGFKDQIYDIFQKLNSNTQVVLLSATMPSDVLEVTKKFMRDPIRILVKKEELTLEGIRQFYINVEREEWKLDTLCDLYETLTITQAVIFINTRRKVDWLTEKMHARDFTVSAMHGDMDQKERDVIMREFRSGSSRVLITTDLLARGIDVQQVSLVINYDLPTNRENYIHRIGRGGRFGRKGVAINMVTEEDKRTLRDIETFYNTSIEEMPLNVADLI
For `COc1ccc([C@@]23Oc4cc(OC)cc(OC)c4[C@]2(O)[C@H](O)[C@H](C(=O)c2cc4ccccc4o2)[C@H]3c2ccccc2)cc1`, “fluorescence polarization change” read 14.1 mP.
`CNCCOc1ccc2c(c1)O[C@@]1(c3ccc(Cl)cc3)[C@H](c3ccccc3)C[C@H](O)[C@@]21O`: “fluorescence polarization change” 119 mP.
Under “fluorescence polarization change”, `COc1ccc([C@@]23Oc4cc(OC)cc(OC)c4[C@]2(O)[C@H](O)[C@H](CO)[C@H]3c2ccccc2)cc1` is recorded as 53.5 mP.
`COc1ccc([C@@]23Oc4cc(OC)cc(OC)c4[C@]2(O)C2=C(C(=O)N4CCC[C@H]4O2)[C@H]3c2ccccc2)cc1`: “fluorescence polarization change” 51.6 mP.
`CCCc1ccc(C(=O)[C@H]2[C@@H](O)[C@@]3(O)c4c(OC)cc(OC)cc4O[C@@]3(c3ccc(OC)cc3)[C@@H]2c2ccccc2)o1`: “fluorescence polarization change” 9.6 mP.
`COC(=O)[C@@H]1[C@@H](c2ccccc2)[C@]2(c3ccc(OC)cc3)Oc3cc(OC)cc(OC)c3[C@@]23NC(C(C)C)=N[C@@]13O`: “fluorescence polarization change” 70.1 mP.
For `COC(=O)[C@H]1C(=O)[C@@]2(NCCCC(OC)OC)c3c(OC)cc(OC)cc3O[C@@]2(c2ccc(OC)cc2)[C@@H]1c1ccccc1`, “fluorescence polarization change” read 13.2 mP.
For `COc1ccc([C@@]23Oc4cc(OC)cc(OC)c4[C@]2(O)c2nc(N4CCOCC4)[nH]c(=O)c2[C@H]3c2ccccc2)cc1`, “fluorescence polarization change” read 49.6 mP and 58.3 mP.
`COc1ccc([C@@]23Oc4cc(OC)cc(OC)c4[C@]2(OC)c2nc(-c4ccccc4)n(C)c(=O)c2[C@H]3c2ccccc2)cc1` — result for “fluorescence polarization change”: -7.1 mP.
Under “fluorescence polarization change”, `COC(=O)[C@@H]1[C@@H](c2ccccc2)[C@]2(c3ccc(OC)cc3)Oc3cc(OC)cc(OC)c3[C@@]23OC(Cc2ccccc2)=N[C@@]13O` is recorded as 17.6 mP.
For `COc1ccc([C@]23Oc4cc(OC)cc(OC)c4[C@@]4(O[C@@H]5CCCN5C(=O)[C@@H]4[C@H]2c2ccccc2)[C@@H]3O)cc1`, “fluorescence polarization change” read -8.3 mP.
`COC(=O)[C@H]1C(=O)[C@@]2(NCc3nccn3C)c3c(OC)cc(OC)cc3O[C@@]2(c2ccc(OC)cc2)[C@@H]1c1ccccc1`: “fluorescence polarization change” -1.6 mP.
Under “fluorescence polarization change”, `CONC(=O)[C@H]1[C@@H](O)[C@@]2(O)c3c(OC)cc(F)cc3O[C@@]2(c2ccc(Br)cc2)[C@@H]1c1ccccc1` is recorded as 81.2 mP.
Under “fluorescence polarization change”, `C=CCN1c2cc(OC)cc(OC)c2[C@]2(O)[C@H](O)[C@H](C(=O)OC)[C@@H](c3ccccc3)[C@]12c1ccc(OC)cc1` is recorded as 2.5 mP.
For `C=CCn1c(-c2ccccc2)nc2c(c1=O)[C@@H](c1ccccc1)[C@]1(c3ccc(OC)cc3)Oc3cc(OC)cc(OC)c3[C@]21O`, “fluorescence polarization change” read 22.2 mP.

Set 3 — effect on: enzyme activity; action: inhibitor; concentration: 0.5 µM; relative to: control
SMILES: COc1ccc2c(c1)c(C1=C(c3c[nH]c4ccccc34)C(=O)NC1=O)cn2CCCN(C)C
The remaining activity was 96.7% (MAPK11 (Homo sapiens, UniProt Q15759)).
The remaining activity was 78.6% (RPS6KA4 (Homo sapiens, UniProt O75676)).
MAP2K1 (Homo sapiens, UniProt Q02750) — remaining activity: 85%.
For MAPK14 (Homo sapiens, UniProt Q16539): remaining activity read 103%.
The remaining activity was 54.6% (Cyclin-dependent kinase 9, with cyclin K (CDK9, Homo sapiens, UniProt P50750)).
For AKT2 (Homo sapiens, UniProt P31751): remaining activity read 110%.
For DCLK2 (Homo sapiens, UniProt Q8N568): remaining activity read 84.8%.
It gave 98.3% for remaining activity (NEK3 (Homo sapiens, UniProt P51956)).
For MARK4 (Homo sapiens, UniProt Q96L34): remaining activity read 95.9%.
It gave 60.7% for remaining activity (PRKG2 (Homo sapiens, UniProt Q13237)).
It gave 102% for remaining activity (MAPK1 (Homo sapiens, UniProt P28482)).
CLK3 (Homo sapiens, UniProt P49761) — remaining activity: 43.6%.
For MARK2 (Homo sapiens, UniProt Q7KZI7): remaining activity read 91.8%.
It gave 93% for remaining activity (PLK3 (Homo sapiens, UniProt Q9H4B4)).

Set 4 — effect on: acetyl-histone H4 peptide binding; technique: AlphaScreen displacement; concentration: 50 µM
Target: Bromodomain-containing protein 4, BD1 (BRD4, Homo sapiens, UniProt O60885)
With `O=C(NNC(=O)c1c(O)c2ccccc2[nH]c1=O)c1cccc(Cl)c1` the inhibition was -4.6%.
For `O=C(CSc1ccc2nnc(-c3cccc(F)c3)n2n1)Nc1ccc(F)cc1F`, the inhibition was 4.95%.
The inhibition of `N#Cc1ccc(C(=O)Nc2cc(N3CCCCC3)ccc2N2CCCCC2)o1` is reported as 66%.
`O=C1Nc2ccccc2C1=Nc1sc2c(c1C(=O)Nc1ccccc1)CCCC2` gave an inhibition of 25.8%.
`O=C1NC(=O)C(=Cc2ccccc2OCc2ccccc2Cl)S1` has an inhibition of 12.9%.
`Nc1nc2ccc([N+](=O)[O-])cc2c(=O)[nH]1` has an inhibition of 11.6%.
For `N#CC(=C1CCCC1)c1nc2ccccc2s1`, the inhibition was 4.1%.
With `Cc1ccc(NS(=O)(=O)c2cc(C(=O)O)c(Cl)cc2Cl)c(O)c1` the inhibition was 18.6%.
The inhibition of `C=CCc1cccc(C=NCCS(=O)(=O)O)c1O` is reported as 15%.
`CCCCCCOC(=O)[C@]1(O)C[C@@H]2O[C@@]1(C)n1c3ccccc3c3c4c(c5c6ccccc6n2c5c31)C(=O)NC4` gave an inhibition of 27.9%.
`O=S(=O)(NCCNCC=Cc1ccc(Br)cc1)c1cccc2cnccc12` has an inhibition of 12.9%.
`COc1ccc(Nc2nc(N)nc3[nH]cnc23)cc1OC` gave an inhibition of 21.8%.
For `Oc1cccc(-c2nc(N3CCOCC3)c3sccc3n2)c1`, the inhibition was 60.5%.
`COC(=O)CSc1ccc2nnc(-c3cccc(F)c3)n2n1` gave an inhibition of 9.85%.
With `CCC(Sc1ccc2nnc(-c3ccc(OC)c(OC)c3)n2n1)C(=O)OC` (stereo not drawn) the inhibition was 6.4%.
The inhibition of `CCOC(=O)c1cnc2oc3ccc(O)cc3c2c1-c1ccccc1` is reported as 12.6%.
The inhibition of `Cc1ccc(NC(=O)c2snc3c(=O)[nH]cnc23)cc1` is reported as 32.2%.
